Experimental data from different studies.
Each line is one published result; not all experiments were run side by side. Numbers after ± are the reported error.

CN(C)c1ccc(-c2nc3ccc(OCCCCCN4CCN5CCN(CC4)CC(=O)[O][Al]([18F])[O]C(=O)C5)cc3s2)cc1 — tissue uptake (ICR mouse, brain; intravenous, 60 min): 0.09 ± 0.05 %ID/g
CCCC[C@H](NC(=O)CNC(=O)CNC(=O)CN1CCN(CC(=O)O)CCN(CC(=O)O)CCN(CC(=O)O)CC1)C(=O)N[C@H]1CC(=O)NCCCC[C@@H](C(N)=O)NC(=O)[C@H](Cc2c[nH]c3ccccc23)NC(=O)[C@H](CCCNC(=N)N)NC(=O)[C@@H](Cc2ccccc2)NC(=O)[C@H](Cc2c[nH]cn2)NC1=O [lead-203 labelled] — tissue uptake (C57 mouse, muscle; intravenous, 0.056 MBq, 4 h): 0.01 ± 0.01 %ID/g
CN1C(=O)[C@@H](Cc2ccc(O)c(I)c2)NC(=O)CNC(=O)[C@H](Cc2ccc3ccccc3c2)NC(=O)[C@H](CCCNC(=N)N)NC(=O)[C@H]1CCCNC(=O)c1ccc(CNC(=O)CN2CCN(CC(=O)O)CCN(CC(=O)O)CCN(CC(=O)O)CC2)cc1 [lutetium-177 labelled] — tissue uptake (female CB-17 SCID mouse, Daudi xenograft, tumor; intravenous, 6 h, CXCR4 blocking, with: AMD3100 2 mg/kg coinjected): 0.43 ± 0.02 %ID/g
CCCC[C@H](NC(=O)CNC(=O)CNC(=O)CN1CCN(CC(=O)O)CCN(CC(=O)O)CCN(CC(=O)O)CC1)C(=O)N[C@H]1CC(=O)NCCCC[C@@H](C(N)=O)NC(=O)[C@H](Cc2c[nH]c3ccccc23)NC(=O)[C@H](CCCNC(=N)N)NC(=O)[C@@H](Cc2ccccc2)NC(=O)[C@H](Cc2c[nH]cn2)NC1=O [copper-64 labelled] — tissue uptake (female C57 mouse, B16/F1 melanoma, lung; intravenous, 0.037 MBq, 24 h): 4.45 ± 0.51 %ID/g
CC(C)[C@H](NC(=O)[C@@H]1CCCN1C(=O)[C@H](CCCNC(=N)N)NC(=O)[C@H](CS)NC(=O)[C@H](Cc1c[nH]c2ccccc12)NC(=O)[C@H](CCCNC(=N)N)NC(=O)[C@@H](Cc1ccccc1)NC(=O)[C@H](Cc1c[nH]cn1)NC(=O)[C@H](CCC(=O)O)NC(=O)[C@H](CS)NC(=O)[C@H](CS)NC(=O)CNC(=O)[C@@H]1CC(=O)N[C@@H](CCCNC(=N)N)C(=O)NCC(=O)N[C@@H](CC(=O)O)C(=O)N[C@H](Cc2ccc(O)cc2)C(=O)N1)C(N)=O [technetium-99m labelled] — tissue uptake (C57 mouse, female, B16/F1 melanoma, muscle; intravenous, 0.037 MBq, 24 h): 0.3 ± 0.08 %ID/g
O=C([O-])CN1CCN(CC(=O)[O-])CCN(CC(=O)NCCc2ccc3c(c2)C2C=CCC2C(c2cc4c(cc2Br)OCO4)N3)CCN(CC(=O)[O-])CC1.[111In+3] (centres unmarked) — tissue uptake (mouse, Hec50 endometrial tumour, liver; 4 h post injection): 3.04 ± 0.73 %ID/g
CCCC[C@H](NC(=O)CNC(=O)CNC(=O)CN1CCN(CC(=O)O)CCN(CC(=O)O)CC1)C(=O)N[C@H]1CC(=O)NCCCC[C@@H](C(N)=O)NC(=O)[C@H](Cc2c[nH]c3ccccc23)NC(=O)[C@H](CCCNC(=N)N)NC(=O)[C@@H](Cc2ccccc2)NC(=O)[C@H](Cc2c[nH]cn2)NC1=O [copper-64 labelled] — tissue uptake (female C57 mouse, B16/F1 melanoma, stomach; intravenous, 0.037 MBq, 24 h): 0.22 ± 0.04 %ID/g
CC(C)[C@H](NC(=O)[C@@H]1CCCN1C(=O)[C@H](CCCNC(=N)N)NC(=O)[C@H](CS)NC(=O)[C@H](Cc1c[nH]c2ccccc12)NC(=O)[C@H](CCCNC(=N)N)NC(=O)[C@@H](Cc1ccccc1)NC(=O)[C@H](Cc1c[nH]cn1)NC(=O)[C@H](CCC(=O)O)NC(=O)[C@H](CS)NC(=O)[C@H](CS)NC(=O)[C@@H]1CC(=O)N[C@@H](CCCNC(=N)N)C(=O)NCC(=O)N[C@@H](CC(=O)O)C(=O)N[C@H](Cc2ccc(O)cc2)C(=O)N1)C(N)=O [technetium-99m labelled] — tissue uptake (C57 mouse, female, B16/F1 melanoma, tumor; intravenous, 0.037 MBq, 0.5 h): 9.46 ± 1.07 %ID/g

For quick reference, copied from above:
CCCC[C@H](NC(=O)CNC(=O)CNC(=O)CN1CCN(CC(=O)O)CCN(CC(=O)O)CCN(CC(=O)O)CC1)C(=O)N[C@H]1CC(=O)NCCCC[C@@H](C(N)=O)NC(=O)[C@H](Cc2c[nH]c3ccccc23)NC(=O)[C@H](CCCNC(=N)N)NC(=O)[C@@H](Cc2ccccc2)NC(=O)[C@H](Cc2c[nH]cn2)NC1=O [copper-64 labelled] — tissue uptake (female C57 mouse, B16/F1 melanoma, lung; intravenous, 0.037 MBq, 24 h): 4.45 ± 0.51 %ID/g
